Measured values from different studies.
Protocols differ between the studies behind these lines. Several values in a cell are separate wells, animals, samples, runs or records. ± marks the error that the study gave.
B1: Urtica dioica agglutinin; sequence looked up; chain QRCGSQGGGGTCPALWCCSIWGWCGDSEPYCGRTCENKCWSGERSDHRCGAAVGNPPCGQDRCCSVHGWCGGGNDYCSGSKCQYRCSSSVRGPRVALSGNSTANSIGNVVVTEPLFDQMFSHRKDCPSQGFYSYHSFLVAAESFPAFGTIGDVATRKREVAAFLAHISQATSGERSDVENPHAWGLCHINTTTVTENDFCTSSDWPCAAGKKYSPRGPIQLTHNFNYGLAGQAIGEDLIQNPDLVEKDPIISFKTALWFWMSQHDNKPSCHDIVLNANSAANRIPNKGVIGNIISRAFGHDDFAVRSSSIGFYKRYCDMLGVSYGHDLKYWFDNTPSSEFQRIQMRVAA

With `KRRRRGLPRLGMVTGY` the bacterial killing was 44.5% (Streptococcus iniae; bacterial survival, plate count; peptide; 20 µM, 4 h, room temperature; relative to: untreated control).
`colistin` — result for “radial growth ratio”: 0.796 and 0.778 (Aspergillus fumigatus; solid minimal medium; 100 µM, 4 d; relative to: untreated control).
The inhibition of `KLKGLLGGKKKLK` is reported as 0 fraction (0-1) (Candida albicans; growth; peptide, ATCC 10231, potato dextrose broth; 128 µM, 30 °C).
With `caspofungin` the MEC was 0.25 µg/mL (Aspergillus fumigatus; A1163).
For `ILPWRWPWWPWRR`, the growth rate was 0.595 (Escherichia coli; peptide, K-12 MG1655, Mueller-Hinton broth; concentration not given, 37 °C, unit not given; relative to: no peptide).
`thiostrepton` gave an MIC of 0.06 µg/mL (Staphylococcus aureus; methicillin-susceptible).
For `tunicamycin`, the MIC was over 64 µg/mL (Staphylococcus aureus; broth microdilution, EUCAST; ATCC 29213; 18 to 24 h, 37 °C).
`B1 (Urtica dioica agglutinin)` has an EC50 of 1.9 µg/mL (feline herpesvirus; viral replication; CRFK).
For `RWRYRRRGYLAMG`, the bacterial killing was 64% (Micrococcus luteus; bacterial survival, plate count; peptide; 20 µM, 4 h, room temperature; relative to: untreated control).
For `Polymyxin B`, the MIC was 16 µg/mL (Klebsiella pneumoniae; broth microdilution; KPC-180 producing).
For `aprotinin`, the metabolic activity was 100% (Aspergillus fumigatus; Alamar blue; 20 µM).
`Polymyxin B` gave a bacterial burden of 2.32 log10 CFU/g and 2.3 log10 CFU/g and 2.35 log10 CFU/g and 2.47 log10 CFU/g (Pseudomonas aeruginosa; NCTC 13921, neutropenic CD-1 mouse, thigh infection, thigh; 25 mg/kg every 6 h, 26 h post infection).
`ILSAAWSGIKSLG` — result for “relative growth rate”: 0.747 (Escherichia coli; bacterial growth, OD600 growth curve; peptide, K12 MG1655, MHB broth; 40 µM, 24 h, 37 °C; relative to: no peptide control).
`KYKKSKNGY` has a bacterial killing of 15.3% (Streptococcus iniae; bacterial survival, plate count; peptide; 20 µM, 4 h, room temperature; relative to: untreated control).
The ROS level of `Polymyxin B` is reported as 328 a.u. (Klebsiella pneumoniae; DCFH-DA fluorescence; ATCC 700603; 2 × MIC; higher = more ROS).
For `ILPWFWPWWPWRR`, the growth rate was 0.364 (Escherichia coli; peptide, K-12 MG1655, Mueller-Hinton broth; concentration not given, 37 °C, unit not given; relative to: no peptide).
For `Tunicamycin`, the maximum inhibition was 11.1% (human coronavirus OC43; virus-induced cell death; MRC-5).
Under “fresh weight inhibition”, `aspterric acid` is recorded as 56.3% and 56.6% and 55% (Arabidopsis thaliana; foliar spray, 200 µg/mL, 20 days).
With `Polymyxin B` the MIC was 4 µg/mL (Klebsiella pneumoniae; broth microdilution; K1 clinical isolate; 20 h).
`Polymyxin B` gave an MIC of 2 µM (Acinetobacter baumannii; broth microdilution, MH medium; KCCM 40203; 16 h, 37 °C, growth inhibition over 99%).
For `insulin human`, the fold change was 1.28 (item: ASS1 mRNA; EcoHIV-infected mouse, brain; i.p., dose not given; relative to: PBS).
For `VRRRRVSRFGRGRGY`, the bacterial killing was 100% (Micrococcus luteus; bacterial survival, plate count; peptide; 20 µM, 4 h, room temperature; relative to: untreated control).
`ILPWYWPWWPWRR` has a growth rate of 0.326 (Escherichia coli; peptide, K-12 MG1655, Mueller-Hinton broth; concentration not given, 37 °C, unit not given; relative to: no peptide).
`vancomycin` has an IC50 of 800 ± 100 nM (Enterococcus faecalis; bacterial growth).
`RKYKKRGYQAVQ` gave a bacterial killing of 54.2% (Streptococcus iniae; bacterial survival, plate count; peptide; 20 µM, 4 h, room temperature; relative to: untreated control).
`Teicoplanin A2-2` has an MIC of 0.25 µg/mL (Enterococcus faecalis; vancomycin-susceptible).
`LLGKKLLKGAKGG` gave an inhibition of 0 fraction (0-1) (Candida albicans; growth; peptide, ATCC 10231, potato dextrose broth; 128 µM, 30 °C).
`ILPWDWPWWPWRR` has a growth rate of 0.00101 (Escherichia coli; peptide, K-12 MG1655, Mueller-Hinton broth; concentration not given, 37 °C, unit not given; relative to: no peptide).
With `RQYKNRGLRGQQAGHLI` the bacterial killing was 29.5% (Streptococcus iniae; bacterial survival, plate count; peptide; 20 µM, 4 h, room temperature; relative to: untreated control).
The MIC of `colistin` is reported as 4 µg/mL (Acinetobacter baumannii; 1189854, multidrug-resistant).
`Ro 31-8220`: “VP2 protein level” “decreased” (infectious bursal disease virus; viral infection; concentration not given).
With `ILPWAWPWWPWRR` the growth rate was 0.00123 (Escherichia coli; peptide, K-12 MG1655, Mueller-Hinton broth; concentration not given, 37 °C, unit not given; relative to: no peptide).
The biofilm formation of `AFTCHCRR / SCYSTEYSYGTCTVMGINHRFCCL (disulfide)` is reported as 143% and 116% and 166% and 102% (Acinetobacter baumannii; crystal violet staining; peptide, 19606; concentration not given).
With `KKRRRGLSRFRMGRGY` the bacterial killing was 30.5% (Pseudomonas fluorescens; bacterial survival, plate count; peptide; 20 µM, 4 h, room temperature; relative to: untreated control).
`HNP1 R15A` has a biofilm formation of 366% and 290% and 329% (Acinetobacter baumannii; crystal violet staining; 19606; concentration not given).
`ILPWGWPWWPWRR` gave a growth rate of 0.556 (Escherichia coli; peptide, K-12 MG1655, Mueller-Hinton broth; concentration not given, 37 °C, unit not given; relative to: no peptide).
With `KRRRGGRLSGFRTAVGY` the bacterial killing was 48.1% (Micrococcus luteus; bacterial survival, plate count; peptide; 20 µM, 4 h, room temperature; relative to: untreated control).

Some of these lines once more:
`KYKKSKNGY` has a bacterial killing of 15.3% (Streptococcus iniae; bacterial survival, plate count; peptide; 20 µM, 4 h, room temperature; relative to: untreated control).
`colistin` — result for “radial growth ratio”: 0.796 and 0.778 (Aspergillus fumigatus; solid minimal medium; 100 µM, 4 d; relative to: untreated control).
The biofilm formation of `AFTCHCRR / SCYSTEYSYGTCTVMGINHRFCCL (disulfide)` is reported as 143% and 116% and 166% and 102% (Acinetobacter baumannii; crystal violet staining; peptide, 19606; concentration not given).
